# Measurements collected from several papers.
# Compare with care: the assays were run in different laboratories. “And” joins repeats or separate records; there may be more than shown. ± gives the spread as reported.
# Chain of UniProt P11712 (whole entry, looked up): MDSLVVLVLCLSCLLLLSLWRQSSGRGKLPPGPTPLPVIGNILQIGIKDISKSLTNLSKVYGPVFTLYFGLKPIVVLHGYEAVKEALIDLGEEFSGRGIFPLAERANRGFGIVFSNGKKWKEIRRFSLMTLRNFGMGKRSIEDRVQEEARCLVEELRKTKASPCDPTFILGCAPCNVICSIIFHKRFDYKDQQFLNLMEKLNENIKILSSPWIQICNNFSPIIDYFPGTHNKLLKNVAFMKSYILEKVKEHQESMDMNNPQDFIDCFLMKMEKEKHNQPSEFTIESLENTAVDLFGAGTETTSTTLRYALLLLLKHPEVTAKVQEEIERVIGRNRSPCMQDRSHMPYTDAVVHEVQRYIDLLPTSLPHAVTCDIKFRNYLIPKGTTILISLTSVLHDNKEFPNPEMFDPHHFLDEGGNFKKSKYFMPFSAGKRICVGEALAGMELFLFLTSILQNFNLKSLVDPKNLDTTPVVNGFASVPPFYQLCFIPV
SMILES,target or system,test,test system,conditions,how to read,measurement,result
C=C(NC(=O)c1csc(-c2nc3c(cc2O)-c2nc(cs2)C(=O)NC(C(C)O)C(=O)NC(=C(C)OC)c2nc(cs2)C(=O)NC2c4nc(cs4)C(=O)NC(COC(=O)c4c5c6c(cccc6n4O)COC(=O)C(OC4CC(C)(O)C(N(C)C)C(C)O4)C2OC5)c2nc-3cs2)n1)C(N)=O (stereo not shown),,,"cynomolgus monkey, female, plasma","intravenous infusion, 3 mg/kg, multiple doses, day 7",,AUC(0-inf),25400 ng·h/mL
COc1ccc(Nc2nc(Nc3ccc(OCCOCC[18F])cc3)ncc2Br)cc1,,,"ICR mice, S180 tumour-bearing, tumor","intravenous, 370 kBq, 60 min",,tissue uptake,4.07 ± 0.5 %ID/g
CNC(=O)C1CCCN(C(=O)C2CC3CCC2N3C(=O)[C@@H]2C[C@@H](O)CN2C(=O)NCc2cccc(Cl)c2F)C1 (mixture of isomers),"Cytochrome P450 2C9 (CYP2C9, Homo sapiens, UniProt P11712)",preincubation with NADPH,human,16.7 µM,baseline: negative control,remaining activity,101% and 96.7% and 112%
COc1ccc(Nc2nc(Nc3ccc(OCCOCCOCC[18F])cc3)ncc2Br)cc1,,,"ICR mice, S180 tumour-bearing, kidney","intravenous, 370 kBq, 60 min",,tissue uptake,5.89 ± 0.48 %ID/g
Nc1ncc(-c2cc(-c3cnn(CC(F)(F)F)c3)ncc2F)nc1C(=O)NC1CNCC(F)C1 (stereo not shown),MAP4K3,KINOMEscan,,1 µM,baseline: DMSO control,remaining binding,58%
COc1cccc(OC)c1-c1cc(C(=O)NC2(C(=O)O)C3CC4CC(C3)CC2C4)nn1-c1ccc(C(=O)N(C)CCOCCN(C)C(=O)[C@H](CCCCNC(=O)[C@H](CC(C)C)NC(=O)C2OC2C(=O)O)NC(=O)CN2CCN(CC(=O)[O-])CCN(CC(=O)[O-])CCN(CC(=O)[O-])CC2)cc1C(C)C.[177Lu+3] (mixture of isomers),,,"mouse, HT-29 xenograft, liver",24 h post injection,,tissue uptake,0.9 %ID/g
COC1CN([C@H]2CC[C@H]([C@@]3(C)Oc4c(Cl)cc(C(=O)NCc5c(SC)cc(C)[nH]c5=O)c(C)c4O3)CC2)C1,,"RNA-seq, item: MTUS1","human, whole blood","dose not given, 24 h",baseline: pretreatment baseline,log2 fold change,1.81
COc1cccc(OC)c1-c1cc(C(=O)NC2(C(=O)O)C3CC4CC(C3)CC2C4)nn1-c1ccc(C(=O)N(C)CCOCCOCCN(C)C(=O)[C@H](CCCCNC(=O)[C@H](CC(C)C)NC(=O)C2OC2C(=O)O)NC(=O)CN2CCN(CC(=O)[O-])CCN(CC(=O)[O-])CCN(CC(=O)[O-])CC2)cc1C(C)C.[177Lu+3] (mixture of isomers),,,"mouse, HT-29 xenograft, kidney",4 h post injection,,tissue uptake,11.9 %ID/g
N#C[C@@H]1CC(F)(F)CN1C(=O)CNC(=O)c1ccnc2c(NC(=O)[C@H](CCCCNC(=O)CCOCCOCCOCCOCCOCCOCCNC(=O)CN3CCN(CC(=O)[O-])CCN(CC(=O)[O-])CCN(CC(=O)[O-])CC3)NC(=O)CCCc3ccc(I)cc3)cccc12.[177Lu+3],,,"mouse, U-87 MG tumour xenograft, spleen",4 h,,tissue uptake,1.31 ± 0.64 %ID/g
[123I]c1ccc2nc(-c3ccc(-n4ccnn4)nc3)cn2c1,,,"Wistar rat, male, red marrow","intravenous, 4 MBq, 5 min",,tissue uptake,0.993 ± 0.272 %ID/g
CC(C)Cc1ccc(C(C)C(=O)N[C@@H](CCCCNC(=O)CCOCCOCCOCCOCCOCCOCCNC(=O)CN2CCN(CC(=O)[O-])CCN(CC(=O)[O-])CCN(CC(=O)[O-])CC2)C(=O)Nc2cccc3c(C(=O)NCC(=O)N4CC(F)(F)C[C@H]4C#N)ccnc23)cc1.[177Lu+3] (stereo partly shown),,,"mouse, U-87 MG tumour xenograft, salivary gland",48 h,,tissue uptake,0.95 ± 0.23 %ID/g
COc1cccc(OC)c1-c1cc(C(=O)NC2(C(=O)O)C3CC4CC(C3)CC2C4)nn1-c1ccc(C(=O)NCCNC(=O)[C@H](CCCCNC(=O)[C@H](CC(C)C)NC(=O)C2OC2C(=O)O)NC(=O)CN2CCN(CC(=O)[O-])CCN(CC(=O)[O-])CCN(CC(=O)[O-])CC2)cc1C(C)C.[177Lu+3] (mixture of isomers),,,"mouse, HT-29 xenograft, muscle",72 h post injection,,tissue uptake,0.08 %ID/g
CCCC[C@H](NC(=O)CNC(=O)CNC(=O)[C@H](CCCCNC(=O)[C@H](CC(=O)O)NC(=O)C(C)c1ccc(CC(C)C)cc1)NC(=O)CN1CCN(CC(=O)O)CCN(CC(=O)O)CCN(CC(=O)O)CC1)C(=O)N[C@H]1CC(=O)NCCCC[C@@H](C(N)=O)NC(=O)[C@H](Cc2c[nH]c3ccccc23)NC(=O)[C@H](CCCNC(=N)N)NC(=O)[C@@H](Cc2ccccc2)NC(=O)[C@H](Cc2c[nH]cn2)NC1=O (stereo partly shown) [lutetium-177 labelled],,,"C57 mouse, brain","intravenous, 2 h, added: 10 µg NDP-MSH co-injection",,tissue uptake,0.07 ± 0.02 %ID/g
Cc1ncsc1-c1ccc(C(C)NC(=O)C2CC(O)CN2C(=O)C(NC(=O)CCCCCCCCCCN2CCCC(Nc3ncc(Cl)c(Nc4ccccc4S(=O)(=O)C(C)C)n3)C2)C(C)(C)C)cc1 (stereo not shown),22Rv1,"RNA-seq, item: PPARGC1B mRNA",,concentration not given,baseline: DMSO,log2 fold change,-1.32
CCCC[C@H](NC(=O)COCCOCCNC(=O)CN1CCN(CC(=O)O)CCN(CC(=O)O)CC1)C(=O)N[C@H]1CC(=O)NCCCC[C@@H](C(N)=O)NC(=O)[C@H](Cc2c[nH]c3ccccc23)NC(=O)[C@H](CCCNC(=N)N)NC(=O)[C@@H](Cc2ccccc2)NC(=O)[C@H](Cc2c[nH]cn2)NC1=O [fluorine-18 labelled],,,"C57 mice, B16/F10 melanoma, intestines","intravenous, 0.37 MBq, 0.5 h",,tissue uptake,1.23 ± 0.32 %ID
O=C(O)CCCOc1ccc([18F])cc1-c1cc(-c2ccccc2C(F)(F)F)n(-c2ccccc2)n1,,,"mouse, blood","intravenous, dose not given, 15 min",,tissue uptake,0.36 ± 0.05 %ID/g

# Repeated from above:
SMILES,target or system,test,test system,conditions,how to read,measurement,result
O=C(O)CCCOc1ccc([18F])cc1-c1cc(-c2ccccc2C(F)(F)F)n(-c2ccccc2)n1,,,"mouse, blood","intravenous, dose not given, 15 min",,tissue uptake,0.36 ± 0.05 %ID/g
C=C(NC(=O)c1csc(-c2nc3c(cc2O)-c2nc(cs2)C(=O)NC(C(C)O)C(=O)NC(=C(C)OC)c2nc(cs2)C(=O)NC2c4nc(cs4)C(=O)NC(COC(=O)c4c5c6c(cccc6n4O)COC(=O)C(OC4CC(C)(O)C(N(C)C)C(C)O4)C2OC5)c2nc-3cs2)n1)C(N)=O (stereo not shown),,,"cynomolgus monkey, female, plasma","intravenous infusion, 3 mg/kg, multiple doses, day 7",,AUC(0-inf),25400 ng·h/mL
CC(C)Cc1ccc(C(C)C(=O)N[C@@H](CCCCNC(=O)CCOCCOCCOCCOCCOCCOCCNC(=O)CN2CCN(CC(=O)[O-])CCN(CC(=O)[O-])CCN(CC(=O)[O-])CC2)C(=O)Nc2cccc3c(C(=O)NCC(=O)N4CC(F)(F)C[C@H]4C#N)ccnc23)cc1.[177Lu+3] (stereo partly shown),,,"mouse, U-87 MG tumour xenograft, salivary gland",48 h,,tissue uptake,0.95 ± 0.23 %ID/g
